Results collected from several papers.
“And” joins repeats or separate records; there may be more than shown.

Structure (SMILES)	tested on	assay	test system	setting	how to read	measurement	result
C(=N\Nc1nc(Nc2ccccc2)nc(N2CCOCC2)n1)/c1c[nH]c2ccccc12	Trypanosoma cruzi	reporter mRNA translation, inhibitor, measured: Renilla luciferase mRNA	cell-free extract	concentration not given, test 1	reference: positive over negative control	translation activity	101% and 93.8%
COc1cc(C(=O)N2CC[C@@H](O)[C@@H](N)C2)cc2nc(-c3cc4cccnc4n3CC3CC3)n(C)c12	human neutrophils	protein citrullination, inhibitor, flow cytometry, measured: citrullinated proteins		1 µM, added: ionomycin		inhibition	11.4% and 30.9% and 30.3% and 14%
CCOC(=O)c1cn(CC(c2c[nH]c3cc(Br)ccc23)c2c[nH]c3cc(Br)ccc23)c(C)c1C(=O)OC	DH82	cell growth or viability, MTS		20 µM, 24 h		inhibition	12.1%
COc1cc(/C=C/C(=O)/C=C(O)/C=C/c2ccc(OCC(=O)N3CCOCCOCCOCC3)c(OC)c2)ccc1OCC(=O)N1CCOCCOCCOCC1	COS-7	cell growth or viability, SRB		25 µM		inhibition	64.9%
CCCC[C@H](N)C(=O)N[C@H]1CSCc2ccc(cc2)-c2ccc(cc2)CSC[C@@H](C(=O)N[C@H](C(N)=O)[C@@H](C)O)NC(=O)[C@H](CCCCN)NC(=O)[C@H](CCCCN)NC(=O)[C@H](CCCCN)NC(=O)[C@H](Cc2ccc(O)cc2)NC(=O)[C@H](CC(N)=O)NC(=O)[C@H](CC(C)C)NC1=O	AsPC-1 (KRAS G12D)	ERK phosphorylation, Western blot, measured: p-ERK/ERK		50 µM		inhibition	~75%
C=CC(=O)N1CCC2(CCN(Cc3ccccc3)C2)C1 (stereo not drawn)	T47D, 14-3-3σ knockdown vs control	ERα reporter gene		10 µM, 24 h		inhibition	decreased
COc1cc(/C=C/C(=O)/C=C(O)/C=C/c2ccc(OCC(=O)N3CCOCCOCCOCCOCCOCC3)c(OC)c2)ccc1OCC(=O)N1CCOCCOCCOCCOCCOCC1	COS-7	cell growth or viability, SRB		25 µM		inhibition	95.7%
COc1cc([C@@H]2O[C@@H](c3cc(OC)c(O[C@@H]4O[C@H](CO)[C@@H](O)[C@H](O)[C@H]4O)c(OC)c3)[C@H](CO)[C@H]2CO)cc(OC)c1O	3T3-L1	lipid accumulation, Oil Red O staining		5 µM, early differentiation	reference: vehicle	inhibition	> 50%
Cc1cc(NC2CCN(C)CC2)ccc1-c1cc2c(N3CCC[C@H](C(=O)N[C@H](C)c4ccccc4)C3)ncnc2[nH]1	KARPAS-299	cell growth or viability, MTT		1 µg/mL, 72 h		inhibition	88.2%
O=C(NN(c1ccccc1)c1ccccc1)c1ccc([N+](=O)[O-])o1	Trypanosoma cruzi	reporter mRNA translation, inhibitor, measured: Renilla luciferase mRNA	cell-free extract	concentration not given, test 3	reference: positive over negative control	translation activity	97.5%
CN1CCN(C(=O)c2ccc(-c3cc4c(N5CCC[C@H](C(=O)NCc6ccc(OC(F)(F)F)cc6)C5)ncnc4[nH]3)cc2)CC1	KARPAS-299	cell growth or viability, MTT		0.008 µg/mL, 72 h		inhibition	26.7%
COC1CN([C@H]2CC[C@H]([C@@]3(C)Oc4c(Cl)cc(C(=O)NCc5c(SC)cc(C)[nH]c5=O)c(C)c4O3)CC2)C1		RNA-seq, measured: A3GALT2	human, whole blood	dose not given, 24 h	reference: pretreatment baseline	log2 fold change	2.13

For quick reference, copied from above:
Structure (SMILES)	tested on	assay	test system	setting	how to read	measurement	result
COc1cc(/C=C/C(=O)/C=C(O)/C=C/c2ccc(OCC(=O)N3CCOCCOCCOCC3)c(OC)c2)ccc1OCC(=O)N1CCOCCOCCOCC1	COS-7	cell growth or viability, SRB		25 µM		inhibition	64.9%
